Experimental data from different studies.
Each line is one published result; not all experiments were run side by side.
Target: Serine/threonine-protein kinase TAO3 (TAOK3, Homo sapiens, UniProt Q9H2K8)
Sequence (Q9H2K8 1-898, as in one of the studies): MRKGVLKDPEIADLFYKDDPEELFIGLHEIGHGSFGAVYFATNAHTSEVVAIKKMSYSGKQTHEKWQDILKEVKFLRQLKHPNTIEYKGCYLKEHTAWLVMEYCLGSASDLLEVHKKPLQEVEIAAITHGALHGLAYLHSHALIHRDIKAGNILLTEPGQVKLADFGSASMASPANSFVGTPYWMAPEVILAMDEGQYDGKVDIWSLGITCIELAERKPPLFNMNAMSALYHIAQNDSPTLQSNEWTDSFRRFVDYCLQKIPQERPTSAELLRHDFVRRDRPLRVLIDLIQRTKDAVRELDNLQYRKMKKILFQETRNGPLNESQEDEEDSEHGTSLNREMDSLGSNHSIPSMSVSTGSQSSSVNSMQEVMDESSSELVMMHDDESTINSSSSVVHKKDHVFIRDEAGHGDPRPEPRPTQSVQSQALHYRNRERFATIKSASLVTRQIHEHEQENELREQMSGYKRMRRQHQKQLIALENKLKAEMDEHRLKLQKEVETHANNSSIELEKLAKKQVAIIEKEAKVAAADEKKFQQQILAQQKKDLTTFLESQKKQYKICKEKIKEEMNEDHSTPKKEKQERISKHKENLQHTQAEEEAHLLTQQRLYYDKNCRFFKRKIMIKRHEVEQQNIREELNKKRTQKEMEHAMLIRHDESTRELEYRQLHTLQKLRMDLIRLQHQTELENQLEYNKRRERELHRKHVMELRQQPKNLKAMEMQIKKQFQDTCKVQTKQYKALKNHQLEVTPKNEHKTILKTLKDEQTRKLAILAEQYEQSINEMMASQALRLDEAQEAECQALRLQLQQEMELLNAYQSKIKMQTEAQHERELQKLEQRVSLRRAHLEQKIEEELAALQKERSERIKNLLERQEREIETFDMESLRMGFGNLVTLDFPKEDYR

C=CC(=O)Nc1cccc(-c2cnc3[nH]cc(C(=O)NC(C)(C)C)c3n2)c1 — inhibition (enzyme activity, inhibitor; 0.1 µM): 22%
COc1ccc(NC(=O)Nc2ccc3c(c2)C(=O)N(C(C)CO)CC(C)C(CN(C)Cc2ccc4c(c2)OCO4)O3)cc1 (centres unmarked) — remaining activity (kinase activity, KinaseProfiler; 0.03 µM, species human; relative to: control): 84%
CCn1cc(C(=O)O)c(=O)c2c(N)c(F)c(NC3CCCCC3)cc21 — inhibition (kinase activity; 0.1 µM, with: ATP at Km): -5.4%
COc1ccc(C(=O)/C=C/c2ccccc2-c2c[nH]c3ccc(C#N)cc23)c(O)c1 — inhibition (enzyme activity, inhibitor; 20 µM): -1%
COc1cc(Nc2nc(C)cc(-c3cnn4nc(OC)ccc34)n2)cc(C(F)(F)F)c1 — remaining binding (binding, competition with immobilised ligand; 1 µM): 75%
Cc1ccc(-c2c(/C=C(\C#N)C(=O)NC(C)C)n(CCCO)c3ncnc(N)c23)cc1 — remaining binding (cell-free assay, competition with immobilised ligand; 1 µM): 100%
Nc1ncc(-c2cc(-c3cnn(CC(F)(F)F)c3)ncc2F)nc1C(=O)NC1CNCC(F)C1 (centres unmarked) — remaining activity (enzyme activity; 1 µM; relative to: DMSO control): 81.2%
CC(C)=CC1OC(C)(C)C2C=C3C(=O)C(Cl)=CC(O)C3C3C(O)C4OC4C(=O)C132 (centres unmarked) — remaining binding (cell-free assay, competition with immobilised ligand; 10 µM): 79%
NC(=O)C[C@H]1CCc2sc3ncnc(O[C@H]4CC[C@H](N5CCOCC5)CC4)c3c21 — inhibition (enzyme activity, inhibitor; 10 µM): 3%
O=C=[N][Ru-4]123([n]4c5ccc(O)cc5c5c6c(c7cc(F)c[n+]1c7c54)C(=O)NC6=O)[S+]1CC[S+]2CC[S+]3CC1 (centres unmarked) — remaining activity (enzyme activity; 100 nM, human enzyme, with: 10 µM ATP; relative to: untreated): 100%
C[C@]1(O)CCCN(c2nc(Nc3ccc(S(=O)(=O)N[C@H]4CC[C@H](CN5CCN(c6ccc(C7CCC(=O)NC7=O)cc6F)CC5)CC4)cc3)ncc2C(F)(F)F)C1 (some centres unmarked) — remaining binding (binding, competition with immobilised ligand; 1 µM): 32%
COc1c(OCCCN2CCOCC2)ccc2c1N=C(NC(=O)c1cnc(N)nc1)N1CCN=C21 — remaining activity (kinase activity, inhibitor; 1 µM; relative to: untreated control): 98%
C=CC(=O)N1CCCC(n2c(=O)c3ncccc3n(Cc3ccc(Oc4ccccc4)cc3)c2=O)C1 (centres unmarked) — remaining binding (cell-free assay, competition with immobilised ligand; 1 µM): 92%
Cc1cccc(O[C@H]2CCC[C@@H](C(C)CNCc3ccncc3)C2)c1 (relative stereo) — inhibition (enzyme activity, inhibitor; 1 µM): -3%
